Results from different studies.
Parts stem from different laboratories: compare values within a part only. Substitutions count along the parent as printed.

Block 1 — target: CEBPE, bZIP domain (human); technique: DHFR protein complementation; sample: yeast; baseline: wild-type JUN-FOS pair; direction: higher = stronger binding; measurement: binding fitness
Setting: single substitutions, most at no-binding floor
Parent: JUN, bZIP domain (human); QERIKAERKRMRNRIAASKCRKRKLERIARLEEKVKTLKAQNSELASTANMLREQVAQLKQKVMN; partner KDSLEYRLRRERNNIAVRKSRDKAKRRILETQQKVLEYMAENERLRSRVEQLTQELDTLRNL
V35Y: -1.31 natural log
T48D: -1.39 natural log
T37L: -0.944 natural log
S43Q: -0.925 natural log
I28Q: -1.16 natural log
T48P: -1.5 natural log
E54V: -1.33 natural log
E54R: -1.28 natural log
A29G: -1.26 natural log
A57W: -1.31 natural log
A46N: -1.08 natural log
Q55W: -1.29 natural log
N42L: -1.46 natural log
L31D: -1.36 natural log
Q41C: -1.42 natural log
E54D: -1.17 natural log
L45N: -1.49 natural log
L31F: -1.49 natural log
A46I: -1.1 natural log

Block 2 — technique: RNA Bind-n-Seq; form: RNA; sample: in vitro; tested at: not given; baseline: input RNA pool; direction: higher = stronger binding; measurement: bound/input enrichment
Target: RING finger protein unkempt homolog, zinc fingers 1-6, GST-SBP tag (UNK, Homo sapiens, UniProt Q9C0B0, residues 30-357)
Setting: RNA with constant flanks, human-mouse chimeric sites, ends assumed
All sequences stand within: GGGAGUUCUACAGUCCGACGAUC … CAACAGAGGAUUGAGCAUCA
Construct (chain): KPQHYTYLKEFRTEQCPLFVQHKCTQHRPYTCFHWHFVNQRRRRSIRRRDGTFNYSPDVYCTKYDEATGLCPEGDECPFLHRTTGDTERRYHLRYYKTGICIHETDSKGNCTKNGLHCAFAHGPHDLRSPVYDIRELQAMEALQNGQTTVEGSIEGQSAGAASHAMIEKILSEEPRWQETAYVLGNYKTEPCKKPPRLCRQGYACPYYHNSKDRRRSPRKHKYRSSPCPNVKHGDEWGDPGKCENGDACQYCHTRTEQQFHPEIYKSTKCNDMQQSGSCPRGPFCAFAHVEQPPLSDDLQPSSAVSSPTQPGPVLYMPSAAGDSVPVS
GUGACUGGUGUUAAGAUUUCCCCUCAGCAAAGAAGUGCAGUAGUCACCAUAAUUCCAUCUGUGGUGAGUGCCAGUCAGAUUGUGGAGCUGGUUCCAGACCUCAGUUUAGAUACUGGGACU: 0.2 ratio
GAAUCCUACUCAGGCGGAUUUUGCAACACCAAGCUCAAGUAGCAAUUAUCUUAGUCACAGUAGGGUAGCUUUAGGGCUCUGUGGCCAGGGUUUUAUUCACAUGCAGGUUUGGAAAAUGUA: 0.516 ratio
AACAGAUUGUCUUUAAGCAUUCCAAGCGAGAAUGCUGGGGUGAUCAUAAUUACCCACGUGCCUUCUGACUGAGCUUUUAAUUAAUUGCAUGUUACAUCUUUCCUUCACUCCAGAAUUGUU: 0.263 ratio
CACGUGUCUGCAGUGCUUGAUGUGGACUACUCUCCCACUGGGAAGGAAUUUGUGUCUGCCAGCUUUGAUAAAUCUAUUAGAAUCUUUCCUGUGGACAAGAGCCGAAGCAGGGAAGUGUAU: 0.545 ratio
CGCAGAAGGUUAAAGGGUGAGAGUGGGAUGGAGGAUUGUGUCAUGGCUCUGGAGACACUGUUCAGUGUCCUGCUUUCUCUGUGCAGACUGAUGGCCCCUUACACGCCCUUUCUGACUGAG: 0.0881 ratio
CAUGUAUCUGCAGUACUUGAUGUGGACUACUCUCCCACUGGGAAGGAAUUUGUGUCUGCCAGCUUUGAUAAGUCUAUUAGAAUCUUUCCUGUGGACAAAAGUCGAAGCAGGGAAGUGUAU: 0.592 ratio
CCCUCCCCGGGCCACCCACCCCUCCCGGCUCCCCGCCAGAGCAAGGUUUUCUUCUUAUUUCAUAGCAAAUAAGAAAAAUGUUCUACGCACAUUUUGUUCUCAGUAAACGAGGGCCUCUGG: 0.68 ratio
UUAAUCCCCUUCGUUGCUCCCCCACUUCUCAUGGUAAUGACAAAAACUUAUAUCCCCGUCCUAGCUUUCACUCAGAUGGCUUAUGGAGCCGGUUUCCUAGCUUUCUUGGGAGGGAUCAGA: 0.369 ratio

Block 3 — technique: DHFR PCA, deep sequencing; sample: yeast; with: (+)-ABA 0 µM; baseline: wild-type fitted maximum; direction: higher = stronger binding; measurement: relative binding score
Target: ABI1, truncated, D143A, DHFR fusion (Arabidopsis thaliana)
Setting: methotrexate growth selection, single substitutions
Parent: PYL1, truncated, DHFR fusion (Arabidopsis thaliana); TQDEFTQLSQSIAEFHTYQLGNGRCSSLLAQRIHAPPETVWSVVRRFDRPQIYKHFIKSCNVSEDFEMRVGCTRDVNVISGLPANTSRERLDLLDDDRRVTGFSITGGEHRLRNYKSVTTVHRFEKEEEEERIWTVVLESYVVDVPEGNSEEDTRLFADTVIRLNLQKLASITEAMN
M176G: 2.66%
E174Y: -5.44%
L82D: 10.4%
I79D: 2.48%
L169S: -2.88%
Q51K: 3.88%
A158Q: 17.8%
T119E: -8.03%
E151Q: 24.3%
L138G: 3.32%
I172D: -17.4%
L93Q: 0.153%
S140V: 3.42%
D97S: 16.6%

Block 4 — target: CCNA1, cyclin fold, Cln2 fusion (human); technique: yeast growth competition, sequencing; sample: yeast; setting: weak parent motif; baseline: not given; direction: higher = stronger binding; measurement: normalised enrichment score
Parent: SAMHD1 docking peptide (human); ASKSRVQLFKDDP; partner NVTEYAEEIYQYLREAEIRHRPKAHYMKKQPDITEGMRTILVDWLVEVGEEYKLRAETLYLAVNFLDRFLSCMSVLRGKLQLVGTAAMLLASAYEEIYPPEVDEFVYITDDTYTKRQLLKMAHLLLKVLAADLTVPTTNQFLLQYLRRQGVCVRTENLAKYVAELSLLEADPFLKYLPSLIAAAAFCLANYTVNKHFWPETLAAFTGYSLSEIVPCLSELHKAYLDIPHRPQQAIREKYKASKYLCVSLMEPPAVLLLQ
R5A: 0.235
Q7R: 0.834
V6F: 0.174
Q7I: -0.0681
S2E: 0.178
R5I: 0.281
V6Q: -0.194
S4D: 0.207
S2P: 0.415
D11S: 0.388
D11H: 0.0611
S2V: 0.633
R5K: 0.356
R5P: -0.479
K10S: 0.482
K10H: -0.00192
V6G: 0.17
Q7M: -0.191
D12V: 0.444
R5C: 0.302
K10W: -0.132
K3N: -0.0663
V6I: -0.264
V6E: 0.0818
V6M: 0.544

Single results of other studies
PhoQ, residues 284 288 289 292 302 303 AEGLLW — fold induction (PhoP, residues 12 14 15 18 19 HHYTI (Escherichia coli, UniProt P23836); Sort-seq, item: YFP reporter; E. coli; PhoQ-PhoP variant library, with: 10 µM Mg2+; baseline: high Mg2+ state, higher = stronger signaling): 12.9

Repeated from above (block 3):
M176G: 2.66%
L82D: 10.4%
E174Y: -5.44%
A158Q: 17.8%
Q51K: 3.88%
I79D: 2.48%
L138G: 3.32%
T119E: -8.03%
S140V: 3.42%
I172D: -17.4%
E151Q: 24.3%
